Measurements pooled from the literature.
Each numbered part is a random draw from the data of one study; scales do not carry over between parts.

Set 1
Target: Histone acetyltransferase KAT6A, both winged helices, GST fusion (KAT6A, Homo sapiens, UniProt Q92794, residues 1-181)
Technique: protein binding microarray
Molecule type: double-stranded DNA, one strand shown
Sample: in vitro
Concentration: not given
Setting: 8-mer, flanks averaged, mean of 2 arrays, mostly near background
Baseline: not given
Reading: higher = stronger binding
Construct (chain): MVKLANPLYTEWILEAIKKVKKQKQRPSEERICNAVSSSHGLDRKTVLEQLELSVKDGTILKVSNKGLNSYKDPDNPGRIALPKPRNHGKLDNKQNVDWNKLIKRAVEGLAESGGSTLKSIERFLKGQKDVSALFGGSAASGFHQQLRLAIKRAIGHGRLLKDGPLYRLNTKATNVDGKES
With `ACTTCGGG` the E-score was -0.00399.
With `ACGATGAG` the E-score was 0.0666.
With `AGCGTGTC` the E-score was 0.0716.
`CGCCACAA` gave an E-score of 0.0669.
The E-score of `GGAACTAC` is reported as 0.0934.
`ATTTTTTG` gave an E-score of -0.0912.
With `AACTAATG` the E-score was -0.0562.
With `ACTTCGAA` the E-score was -0.167.
The E-score of `AGACTTAC` is reported as -0.0735.
`ATGTAACG` gave an E-score of 0.0361.
The E-score of `AGCGGGCG` is reported as 0.267.
For `ATACGTAC`, the E-score was 0.0316.
The E-score of `CATTATCA` is reported as -0.0506.
For `AGGCACTG`, the E-score was -0.23.
For `CCCACCTC`, the E-score was -0.178.
The E-score of `CCGAAGGA` is reported as 0.05.
With `TCAGCCAA` the E-score was -0.153.
For `CGACCAAG`, the E-score was -0.0199.
With `ATCAGGAT` the E-score was -0.0919.
The E-score of `AGGTCTGA` is reported as 0.0162.
The E-score of `GGATCTAC` is reported as -0.205.
For `CTACTGTA`, the E-score was -0.135.
With `AGGGGAAG` the E-score was -0.31.
For `AAATACGG`, the E-score was 0.0832.
With `ACCGTCAG` the E-score was 0.0222.

Set 2
Target: Ras GTPase-activating protein-binding protein 1, C-terminal RGG region (G3BP1, Homo sapiens, UniProt Q13283)
UniProt Q13283, sequence (whole entry, looked up): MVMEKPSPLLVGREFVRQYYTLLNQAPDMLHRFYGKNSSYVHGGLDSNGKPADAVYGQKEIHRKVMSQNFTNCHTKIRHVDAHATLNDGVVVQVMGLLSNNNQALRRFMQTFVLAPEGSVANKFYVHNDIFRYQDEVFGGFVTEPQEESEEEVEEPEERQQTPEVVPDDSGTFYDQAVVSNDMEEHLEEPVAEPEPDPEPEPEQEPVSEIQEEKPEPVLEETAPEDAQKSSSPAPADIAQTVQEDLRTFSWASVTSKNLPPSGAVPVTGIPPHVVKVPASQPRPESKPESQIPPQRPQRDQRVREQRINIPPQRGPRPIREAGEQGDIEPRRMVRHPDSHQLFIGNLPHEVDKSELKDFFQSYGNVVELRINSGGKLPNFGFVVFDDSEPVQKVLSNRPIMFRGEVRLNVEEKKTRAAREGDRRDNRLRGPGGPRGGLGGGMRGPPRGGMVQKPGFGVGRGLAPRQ
Technique: RNA Bind-n-Seq
Molecule type: RNA
Sample: in vitro
Concentration: 1 µM
Setting: whole 134-nt RNA, ends assumed
With: 150 mM KCl
Baseline: input library
Reading: higher = stronger binding
Shared flanks, not repeated: GGGAGUUCUACAGUCCGACGAUC … UGGAAUUCUCGGGUGUCAAGG
`CUCAAGUCCUGUGCUACACAUCGUAUGUACCGAAUCGGAGGUUUUUGGAAAGGAAAGUAUUAUGUUACGCCGUUCGGAUCUGCACUUCCA` has a log2 enrichment of -1.27.
The log2 enrichment of `ACCAUGCAGGUGGGCAUCUUUGGGAAGUGGGGCAAGGGGGGGGUAGGGAGGGGGGUAACACUUUGGGAACAGGUGGUCCCAGGUCGUUUC` is reported as 1.98.
The log2 enrichment of `UCCUGUGCUACACAUCGUAUGUACCGAAUCAAAGUGUGUGUGUGUGUGUGUGUGUGAAAAAAGUAUUAUGUUACGCCGUUCGGAUCUGCA` is reported as 1.27.
With `UCCUCAAGUCCUGUGCUACACAUCGUAUGUACCGAAUCGGCCGGCCGGCCGGAAAGUAUUAUGUUACGCCGUUCGGAUCUGCACUUCCAG` the log2 enrichment was 0.013.
`UGGGAGGUGGAUUUUGUUUAUUUUUUUAGCUCAUUUCCAGGGUUGGGAAUUUUUUUUUAAUAUGUGUCAUGAAUAAAGUUGUUUUUGAAA` has a log2 enrichment of 3.25.
`GUCCUGUGCUACACAUCGUAUGUACCGAAUCGGGAAAAAGGGAAAAAGGGAAAAAGGGGAAAGUAUUAUGUUACGCCGUUCGGAUCUGCA` gave a log2 enrichment of -0.222.
`CUGUGCUACACAUCGUAUGUACCGAAUCGGGGAAAAAAAGGGGAAAGGGGAAAAAAAGGGGAAAGUAUUAUGUUACGCCGUUCGGAUCUG` gave a log2 enrichment of -0.332.
For `UUGUGUUCGUGAAUUGUAACUCCAGAAGCAAUGCCUGUACAAGCUCCACAAUGGACGGAUUUCCUCUCCUGCCCAAUUUGCACUCAGACU`, the log2 enrichment was 0.655.
`GUCCUGUGCUACACAUCGUAUGUACCGAAUCGGGGAAAAAGGGGUGGGGAAAAAGGGGAAAGUAUUAUGUUACGCCGUUCGGAUCUGCAC` has a log2 enrichment of 1.12.

Set 3
Organism: Saccharomyces cerevisiae
Effect on: binding
Technique: yeast competitive growth sequencing
Molecule type: peptide
Strain: cyclin D1-Cln2 strain
Sample: peptide tiling library
Reading: direction not given
The enrichment score of `ARKRLELGNLGNPQ` is reported as -1.16.
The enrichment score of `DWDTVERQEEEAPSWD` is reported as 2.65.
`LRRQLSFSED` gave an enrichment score of 0.182.
For `RKLHFEDEVT`, the enrichment score was 2.87.
The enrichment score of `RRVLCFDS` is reported as -1.34.
`LRRKLFLDGNGSIS` has an enrichment score of -1.76.
The enrichment score of `TTTTSPRTPPPLTVQD` is reported as 2.41.
With `PPTFLSTGEIHAFLSS` the enrichment score was 0.476.
`GFGFLLFICKLTF` has an enrichment score of -0.941.
The enrichment score of `GAEELEDLVHFSVSEL` is reported as 2.7.
`NFETPEAETPIRSPFK` gave an enrichment score of 1.97.
With `PPKPLKKLRFDIEGSD` the enrichment score was -0.587.
`KVKRRLDLDIDGLQKE` gave an enrichment score of -0.402.
With `RKLDLEGIGR` the enrichment score was -0.534.

Set 4
Target: RNA binding protein fox-1 homolog 2, RRM domain, GST-SBP tag (RBFOX2, Homo sapiens, UniProt O43251-10, residues 100-194)
Technique: RNA Bind-n-Seq
Molecule type: RNA
Sample: in vitro
Concentration: 365 nM
Setting: natural RNA segment, single round, ends assumed
Baseline: no-protein control
Reading: higher = stronger binding
Shared flanks, not repeated: GGGAGUUCUACAGUCCGACGAUC … UGGAAUUCUCGGGUGCCAA
`UCUGCAUCUGUCUCAGACAGGAGCUACCAAAGGGAAACUGUUGUUCUUAUAAGUGUCUUACUUUAAAUCAUGAUAAUAGAAUGUGCACAGUAGCUGAAUUGUGUUAUCAA`: “RBNS enrichment (R)” 0.749.
`AAUAUGCCUUCCUGCUGAGCUGAAGUCUUUCAUUCCACUUCACUGGGGGAGCAGCUGAGGCUUGGGGCCUUGCUCCCUGGGACAUUCUCUCCAUCUUUUGGUGCAUUGGC`: “RBNS enrichment (R)” 0.623.
`GCUAAGAUAUUUUCCAAUCAGUCCCCUUUGUAUUAGUGGGGCAUUUGUGGUUAGUUUGAAAAACAGACAUGGAUAAACUAAAAUGCUUCAUACUUUAUAAGUAAAGCGCU`: “RBNS enrichment (R)” 0.454.
`UUCCUGCCACUUGGUCUGACCCUGGGCCUCUUGUCUUUGGCUUGAACAUUAAGCUAUUUAACCCUCAAAGUUGACCAUGCUUCCAGGACCACAGCACACCCAAGGACAUG` — result for “RBNS enrichment (R)”: 0.484.
Under “RBNS enrichment (R)”, `UCUGUUUUUACAUUUACUGAAUAAGAUUUGAGUAAUGAAAGUCUGUAGUCUUAAAACUCUAAAACAGUUGUACUGCUUCCAAGCAGCAGUAUUUAUAGUAACGUAAGCUA` is recorded as 0.409.
`UUCUCCGUUCCCCUUCAUCUCCGUCCCCCUCUUUGAAGCUGUCCCCAUCUCAGUGUCAGACCAGCCUUCUCCUCAGCUGACCACCCUCCUCUGACCCACGCCCCCUCCUU`: “RBNS enrichment (R)” 1.02.
Under “RBNS enrichment (R)”, `AAAUAGCCUCUCUUUCCUGGGAACCCUCUGUGGUCCUCUCUAAAAGACCCAGAUAUACUGUUAUGGCCAUCUAUCCCAGCCCCUUCCACCCUAUGCUCAACCCUGCUGGC` is recorded as 0.385.
Under “RBNS enrichment (R)”, `GGCCUGUGCCCCUAAACACUACAUUAGACAGUGACACCCAAAGGUUUUCUUAGGAGGGUGUCUGGCAGAGACAGGCCAGCCCCCACUUGCUGGCCAGGGGUCCCUUGGGG` is recorded as 0.474.

Set 5
Target: Sal-like protein 4, full length isoform A (SALL4, Homo sapiens, UniProt Q9UJQ4, residues 1-1053)
UniProt Q9UJQ4, sequence (whole entry, looked up): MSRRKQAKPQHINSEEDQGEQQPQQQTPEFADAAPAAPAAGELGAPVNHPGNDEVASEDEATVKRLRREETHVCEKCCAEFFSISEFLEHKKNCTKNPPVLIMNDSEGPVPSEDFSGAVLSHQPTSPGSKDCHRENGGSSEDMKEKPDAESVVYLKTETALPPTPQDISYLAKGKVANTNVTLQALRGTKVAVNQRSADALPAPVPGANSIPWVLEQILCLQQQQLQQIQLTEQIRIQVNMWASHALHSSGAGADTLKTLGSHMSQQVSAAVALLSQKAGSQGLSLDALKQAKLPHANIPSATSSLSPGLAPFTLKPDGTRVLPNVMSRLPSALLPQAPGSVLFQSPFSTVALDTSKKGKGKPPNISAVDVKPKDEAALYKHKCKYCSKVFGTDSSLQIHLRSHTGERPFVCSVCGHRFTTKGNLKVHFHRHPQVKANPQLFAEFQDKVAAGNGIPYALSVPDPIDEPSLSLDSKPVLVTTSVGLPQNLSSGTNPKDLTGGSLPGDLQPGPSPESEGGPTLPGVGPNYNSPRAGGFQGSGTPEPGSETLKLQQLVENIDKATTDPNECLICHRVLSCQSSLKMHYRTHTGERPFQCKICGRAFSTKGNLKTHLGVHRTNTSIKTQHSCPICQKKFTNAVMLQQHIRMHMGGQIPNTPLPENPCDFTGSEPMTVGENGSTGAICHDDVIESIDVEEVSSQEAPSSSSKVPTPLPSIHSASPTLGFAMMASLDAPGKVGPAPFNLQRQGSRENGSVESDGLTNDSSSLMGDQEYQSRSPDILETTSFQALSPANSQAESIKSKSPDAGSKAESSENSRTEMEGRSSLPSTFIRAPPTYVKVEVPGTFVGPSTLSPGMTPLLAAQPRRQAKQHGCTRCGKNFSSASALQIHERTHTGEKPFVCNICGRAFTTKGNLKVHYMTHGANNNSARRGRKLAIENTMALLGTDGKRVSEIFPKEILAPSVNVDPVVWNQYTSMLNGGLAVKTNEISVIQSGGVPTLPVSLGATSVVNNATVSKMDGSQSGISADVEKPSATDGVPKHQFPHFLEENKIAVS
Technique: universal PBM
Molecule type: double-stranded DNA, one strand shown
Sample: in vitro
Concentration: 600 nM
Setting: 8-mer, flanks averaged, mean of replicates
Reading: higher = stronger binding
`CGATGATC` has an E-score of 0.0293.
The E-score of `ATAGTGAC` is reported as 0.0718.
The E-score of `AAACCCCT` is reported as -0.281.
For `TACACAAA`, the E-score was 0.321.
`ATAATTGG` has an E-score of 0.283.
`GATGTGCA` has an E-score of 0.0449.
`ATGTTTTC` gave an E-score of 0.225.
With `GGTACACA` the E-score was 0.00573.
With `AGATCTAC` the E-score was 0.129.
With `GGTTTCCA` the E-score was -0.0527.
The E-score of `CGGCCTGA` is reported as -0.285.
The E-score of `CAGATAGA` is reported as 0.0664.
For `ATTCCGTA`, the E-score was 0.0824.
The E-score of `ACACTGAG` is reported as 0.00483.
`GACTGACC` has an E-score of -0.287.
`GCCGGCCC` gave an E-score of -0.424.
`AACACTAA` has an E-score of 0.191.
For `CGGTTCGC`, the E-score was -0.245.
The E-score of `CATGTGTC` is reported as -0.121.
The E-score of `CGATCTTA` is reported as -0.113.
With `CTCCAATA` the E-score was 0.222.
The E-score of `CAAAGCCA` is reported as -0.0779.
For `GGACGCCA`, the E-score was -0.309.
`AGCCATTA` has an E-score of 0.2.
For `CGAACTAA`, the E-score was 0.0597.

Repeated from above (set 1):
For `CTACTGTA`, the E-score was -0.135.
With `ACGATGAG` the E-score was 0.0666.
With `AACTAATG` the E-score was -0.0562.
For `AAATACGG`, the E-score was 0.0832.
`CGCCACAA` gave an E-score of 0.0669.
For `CGACCAAG`, the E-score was -0.0199.
For `CCCACCTC`, the E-score was -0.178.
`ATGTAACG` gave an E-score of 0.0361.
